{"data": "Results of several laboratories", "organism": "Acinetobacter baumannii", "note": "Each line is one published result; not all experiments were run side by side. Values joined by “and” are separate records of one study, mostly repeats; a detail may differ."}
{"SMILES": "Brc1ccc2nc(SCc3ccccc3)c(CNCc3ccc(CN4CCCC4)cc3)cc2c1", "test": "NADH-driven proton pumping, ACMA quenching", "system": "inverted membrane vesicles", "conditions": "32 µg/mL", "quantity": "inhibition", "result": "81%"}
{"SMILES": "C[C@@H](O)[C@H]1C(=O)N2C(C(=O)O)=C(S[C@@H]3CN[C@H](C(=O)N(C)C)C3)[C@H](C)[C@H]12", "system": "clinical isolate 2B6", "quantity": "MIC", "result": "48 µg/mL"}
{"SMILES": "c1ccc(CSc2nc3ccccc3cc2CNCc2ccc(CN3CCCC3)cc2)cc1", "test": "NADH-driven proton pumping, ACMA quenching", "system": "inverted membrane vesicles", "conditions": "2 µg/mL", "quantity": "inhibition", "result": "20%"}
{"SMILES": "O=C(N[C@H](CO)[C@H](O)c1ccc([N+](=O)[O-])cc1)C(Cl)Cl", "test": "broth microdilution", "system": "NCTC 13424", "how to read": "reference: 5% CO2 over ambient air", "quantity": "MIC fold shift", "result": 0.5}
{"SMILES": "C[C@@H](O)[C@H]1C(=O)N2C(C(=O)O)=C(S[C@@H]3CN[C@H](C(=O)N(C)C)C3)[C@H](C)[C@H]12", "system": "Kelly lung isolate", "quantity": "MIC", "result": "4 µg/mL"}
{"SMILES": "CCN1CCC(CCNCc2cc3cc(-c4ccccc4)ccc3nc2SCc2ccccc2)CC1", "test": "NADH-driven proton pumping, ACMA quenching", "system": "inverted membrane vesicles", "conditions": "2 µg/mL", "quantity": "inhibition", "result": "0%"}
{"SMILES": "N=C(N)c1ccc(OCc2ccc(-c3ccccc3)cc2COc2ccc(C(=N)N)cc2)cc1", "test": "checkerboard", "system": "ATCC 17978", "conditions": "unit not given, together with: rifampicin", "how to read": "lower = stronger synergy", "quantity": "FICI", "result": "≤ 0.023"}
{"SMILES": "Cc1c(CN(C)C(=O)/C=C/c2cnc3c(c2)CCC(=O)N3)oc2ccccc12", "test": "broth microdilution", "system": "AR-0313", "quantity": "MIC", "result": "> 32 µg/mL"}
{"SMILES": "CCCCCCCCCC(=O)N[C@@H](Cc1c[nH]c2ccccc12)C(=O)N[C@H](CC(N)=O)C(=O)N[C@@H](CC(=O)O)C(=O)N[C@@H]1C(=O)NCC(=O)N[C@@H](CCCN)C(=O)N[C@@H](CC(=O)O)C(=O)N[C@H](C)C(=O)N[C@@H](CC(=O)O)C(=O)NCC(=O)N[C@H](CO)C(=O)N[C@@H]([C@H](C)CC(=O)O)C(=O)N[C@@H](CC(=O)c2ccccc2N)C(=O)O[C@@H]1C", "system": "DSM 30007, iron-rich Mueller-Hinton broth", "conditions": "concentration not given, 18 h, together with: CaCl2 110 µg/mL", "quantity": "antimicrobial activity", "result": "inactive"}
{"SMILES": "c1ccc(CSc2nc3ccccc3cc2CNCc2ccc(N3CCCCC3)cc2)cc1", "test": "NADH-driven proton pumping, ACMA quenching", "system": "inverted membrane vesicles", "conditions": "2 µg/mL", "quantity": "inhibition", "result": "10%"}
{"SMILES": "NCCCC[C@H](NC(=O)[C@H](Cc1ccccc1)NC(=O)[C@H](CCC(N)=O)NC(=O)[C@H](Cc1ccccc1)NC(=O)[C@H](CCC(N)=O)NC(=O)[C@@H](N)Cc1ccccc1)C(N)=O", "quantity": "MBC", "result": "2080 µM"}
{"SMILES": "N=C(N)c1ccc(OCc2ccc(Br)cc2COc2ccc(C(=N)N)cc2)cc1", "test": "checkerboard", "system": "ATCC 17978", "conditions": "unit not given, together with: rifampicin", "how to read": "lower = stronger synergy", "quantity": "FICI", "result": "≤ 0.047"}
{"SMILES": "C[C@@H](O)[C@H]1C(=O)N2C(C(=O)O)=C(SCCN=CN)C[C@H]12", "system": "0403, female ICR mice, peritonitis, kidney", "conditions": "dose not given", "quantity": "bacterial load", "result": "2.52 log CFU and 3.64 log CFU and 3.75 log CFU and 3.82 log CFU and 2.82 log CFU and 3.3 log CFU"}
{"SMILES": "COc1cc2cc(CNCCN3CCN(C)CC3)c(SCc3ccccc3)nc2c(OC)c1OC", "test": "NADH-driven proton pumping, ACMA quenching", "system": "inverted membrane vesicles", "conditions": "2 µg/mL", "quantity": "inhibition", "result": "1%"}
{"SMILES": "N=C(N)c1ccc(OCc2cc(Br)cc(COc3ccc(C(=N)N)cc3)c2)cc1", "system": "ATCC 17978", "conditions": "concentration not given, together with: rifampicin", "quantity": "MIC in combination", "result": "6.25 µg/mL"}
{"SMILES": "c1ccc(CSc2nc3ccc(-c4ccccc4)cc3cc2CNCc2ccc(CN3CCCC3)cc2)cc1", "test": "NADH-driven proton pumping, ACMA quenching", "system": "inverted membrane vesicles", "conditions": "2 µg/mL", "quantity": "inhibition", "result": "22%"}
{"SMILES": "Cc1c(CN(C)C(=O)/C=C/c2cnc3c(c2)CC(NC(=O)OC(C)(C)C)C(=O)N3)oc2ccccc12 (stereo not drawn)", "test": "broth microdilution", "system": "AR-0078", "quantity": "MIC", "result": "> 32 µg/mL"}
{"SMILES": "N=C(N)c1ccc(OCCC(CCOc2ccc(C(=N)N)cc2)c2ccccc2)cc1 (stereo not drawn)", "system": "ATCC 17978", "conditions": "concentration not given, together with: rifampicin", "quantity": "MIC in combination", "result": "12.5 µg/mL"}
{"SMILES": "C[C@H]1COc2c(N3CCN(C)CC3)c(F)cc3c(=O)c(C(=O)O)cn1c23", "test": "broth microdilution", "system": "NCTC 13424", "how to read": "reference: 5% CO2 over ambient air", "quantity": "MIC fold shift", "result": 1}
{"SMILES": "CC1(C)S[C@@H]2[C@H](NC(=O)[C@H](N)c3ccccc3)C(=O)N2[C@H]1C(=O)O", "system": "ATCC BAA-1797, resistant", "conditions": "18 h, 37 °C, dark", "quantity": "MIC", "result": "> 128 µM"}
{"SMILES": "Brc1ccc2nc(SCc3ccccc3)c(CNCCC3CCN(C4CCCC4)CC3)cc2c1", "test": "NADH-driven proton pumping, ACMA quenching", "system": "inverted membrane vesicles", "conditions": "2 µg/mL", "quantity": "inhibition", "result": "8%"}
{"SMILES": "N=C(N)c1ccc(OCc2cccc(COc3ccc(C(=N)N)cc3)c2)cc1", "system": "ATCC 17978", "conditions": "concentration not given, together with: rifampicin", "quantity": "MIC in combination", "result": "25 µg/mL"}
{"SMILES": "CCN1CCC(CCNCc2cc3cc(Br)ccc3nc2SCc2ccccc2)CC1", "test": "NADH-driven proton pumping, ACMA quenching", "system": "inverted membrane vesicles", "conditions": "2 µg/mL", "quantity": "inhibition", "result": "18%"}
{"SMILES": "N=C(N)c1ccc(OCc2cc(COc3ccc(C(=N)N)cc3)cc(-c3ccccc3)c2)cc1", "test": "checkerboard", "system": "ATCC 17978", "conditions": "unit not given, together with: rifampicin", "how to read": "lower = stronger synergy", "quantity": "FICI", "result": "≤ 0.023"}
{"note": "Some of these lines once more:"}
{"SMILES": "Cc1c(CN(C)C(=O)/C=C/c2cnc3c(c2)CC(NC(=O)OC(C)(C)C)C(=O)N3)oc2ccccc12 (stereo not drawn)", "test": "broth microdilution", "system": "AR-0078", "quantity": "MIC", "result": "> 32 µg/mL"}
{"SMILES": "N=C(N)c1ccc(OCCC(CCOc2ccc(C(=N)N)cc2)c2ccccc2)cc1 (stereo not drawn)", "system": "ATCC 17978", "conditions": "concentration not given, together with: rifampicin", "quantity": "MIC in combination", "result": "12.5 µg/mL"}
